Measurements from different studies.
A part holds a random share of what one study measured.

Sample 1
Target: Histone acetyltransferase KAT6A, winged helix 1, GST fusion (KAT6A, Homo sapiens, UniProt Q92794, residues 1-85)
Technique: protein binding microarray
Molecule type: double-stranded DNA, one strand shown
Sample: in vitro
Concentration: not given
Setting: 8-mer, flanks averaged, mean of 2 arrays, mostly near background
Relative to: not given
Direction: higher = stronger binding
Target sequence (chain): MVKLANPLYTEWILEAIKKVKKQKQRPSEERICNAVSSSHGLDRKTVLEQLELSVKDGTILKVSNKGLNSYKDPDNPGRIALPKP
Sequence	E-score
ACACTACG	0.107
GCCGCCGC	0.487
GATATTAA	0.027
AATGCTGA	-0.256
CCGGTCCC	0.328
GCCTGCGA	-0.108
AAACGACT	-0.125
GCGTCGTA	0.321
AAGAGCCA	-0.117
AGCGTCCA	-0.0145
CACCCCAC	-0.188
TGGGAACA	-0.225
GGGCACCA	-0.0942
CCTCACCG	0.0765
TCTCGGCA	0.168
CCAAATGC	-0.178
AACTGACG	0.00455
CGTCCCCC	0.181
CTGAGTGA	-0.0653
CCGGTGTA	0.32
AACGTACT	-0.062
AGTCGAGG	-0.0798
CGTCTCAA	-0.0185
ATGGCCTG	-0.159
CGCACACC	0.251

Sample 2
Target: Interferon regulatory factor 7, full length, phosphomimetic (IRF7, Homo sapiens, UniProt Q92985, residues 1-503, S471D/S472D/S475D/S476D/S477D/S483D/S484D/S487D)
Technique: protein-binding microarray
Molecule type: double-stranded DNA, one strand shown
Sample: in vitro
Concentration: 2200 nM top
Setting: 60-bp whole probe
Added: salmon DNA 0.4 mg/ml
Relative to: random background probes
Direction: higher = stronger binding
All sequences stand within: GCCTAGCAC … GTCTTGATTCGCTTGACGCTGCTG
Target sequence (chain): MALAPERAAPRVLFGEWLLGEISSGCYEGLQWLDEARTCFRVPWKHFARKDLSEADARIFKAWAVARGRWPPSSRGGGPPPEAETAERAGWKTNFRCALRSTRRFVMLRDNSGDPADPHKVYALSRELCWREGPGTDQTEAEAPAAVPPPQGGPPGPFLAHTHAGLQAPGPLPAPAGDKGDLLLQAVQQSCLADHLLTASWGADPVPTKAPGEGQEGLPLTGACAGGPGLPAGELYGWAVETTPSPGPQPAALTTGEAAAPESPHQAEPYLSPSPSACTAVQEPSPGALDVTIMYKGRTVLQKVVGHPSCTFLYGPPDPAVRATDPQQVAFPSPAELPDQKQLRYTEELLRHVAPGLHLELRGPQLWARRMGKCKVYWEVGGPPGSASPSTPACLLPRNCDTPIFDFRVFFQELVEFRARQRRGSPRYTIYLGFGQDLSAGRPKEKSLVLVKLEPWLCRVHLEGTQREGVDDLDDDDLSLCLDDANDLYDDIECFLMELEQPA
Sequence	fitted relative affinity [z-score]
TTACATATCAGTCTCGATTAGTGCTAG	1.27
TTAGATTTGAGTCTCGATTAGTGCTAG	0.095
TTAGGTCTCCTTTTCCTTTCGTGCTAG	3.05
TTAGGTATCGACTATGGGTTAGTGCTA	0.0648
GACGGTCCCGGTCTCGGGACGTGCTAG	-0.76
GACGATTCCGGTTTCGGGACGTGCTAG	4.81
GACGGTTTCCTTCTCCTTACGTGCTAG	3.19
TTAGGTATCGGTCTCTGTTAGTGCTAG	1.08
TTAGGAATCGACTATCGGTTAGTGCTA	-0.159
GACGAACTGAGACTGGAGAAGTGCTAG	-0.229
GAAGGTATCGACACTGGGGACGTGCTA	-0.36
GACGGTATAGGTATCGGGACGTGCTAG	-0.338
TCATGTACGTCGTTTCCCACTGTGCTA	1.93
GACGGTTTCCTTCTACTGACGTGCTAG	3.06
TTACATTTATATCTTTGCTTGTGCTAG	1.06
GACGACCTCAGTCTCGAGACGTGCTAG	0.211
TAAGGTTTCGGGTTTCGGTTAGTGCTA	10.4
TCATTTATGCTTTCTTTAACTGTGCTA	1.78
GACGGTATCGGGAATGGGGACGTGCTA	-0.37

Sample 3
Target: Ras GTPase-activating protein-binding protein 1, full length (G3BP1, Homo sapiens, UniProt Q13283)
Sequence of UniProt Q13283 (whole entry, looked up): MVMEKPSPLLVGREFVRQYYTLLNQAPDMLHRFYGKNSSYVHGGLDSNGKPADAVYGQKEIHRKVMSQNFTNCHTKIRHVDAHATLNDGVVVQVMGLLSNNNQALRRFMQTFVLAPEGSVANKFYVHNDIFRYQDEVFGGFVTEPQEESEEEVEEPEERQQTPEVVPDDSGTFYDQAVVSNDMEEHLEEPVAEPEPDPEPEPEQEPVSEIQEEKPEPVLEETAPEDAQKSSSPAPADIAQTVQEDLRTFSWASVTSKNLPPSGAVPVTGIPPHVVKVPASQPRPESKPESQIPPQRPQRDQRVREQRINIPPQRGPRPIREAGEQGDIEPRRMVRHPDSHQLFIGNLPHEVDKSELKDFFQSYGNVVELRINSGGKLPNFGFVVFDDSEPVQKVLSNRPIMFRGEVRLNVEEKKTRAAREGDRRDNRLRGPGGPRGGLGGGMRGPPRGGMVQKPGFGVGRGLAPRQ
Technique: RNA Bind-n-Seq
Molecule type: RNA
Sample: in vitro
Concentration: 200 nM
Setting: whole 134-nt RNA, ends assumed
Added: 150 mM LiCl
Relative to: input library
Direction: higher = stronger binding
All molecules: 7-deaza-guanosine replaces G
All sequences stand within: GGGAGUUCUACAGUCCGACGAUC … UGGAAUUCUCGGGUGUCAAGG
Sequence	log2 enrichment
UAUCUUUAGAGGAGGAUCUGAUGGAUAUGGCAGUGGACGUGGAUUUGGGGAUGGCUAUAAUGGGUAUGGAGGAGGACCUGGAGGUGGCAA	-0.157
UCCUGUGCUACACAUCGUAUGUACCGAAUCGGGGAAAAAAAGGGGUGGGGAAAAAGGGGAAAGUAUUAUGUUACGCCGUUCGGAUCUGCA	-1.6
UGGCCCUGGUGGCAUGCGGGGAGGAAGAGGUGGCCUCAUGGAUCGUGGUGUUCCCGGUGGAAUGUUCAGAGGUGGCCGUGGUGGAGACAG	0.364
UAACUUUAGAGGAGGAUCUGAUAGAUAUGGCAGUGGACGUGGAUUUGGGGAUGGCUAUAAUGGGUAUGGAGGAGGACCUGGAGGUGGCAA	0.0347
UACCAUGGUGGAAGUUCCCGUUCUCGUAGCAGUAUUUUCCAUGCAGGAAAAAGCCAAGGACUACAUGAAAACAACAUACCUGACAAUGAA	0.172
CAAGUCCUGUGCUACACAUCGUAUGUACCGAAUCGGGAAAAGGAAAAGGAAAAGGGAAAGUAUUAUGUUACGCCGUUCGGAUCUGCACUU	-0.964
ACCAUGCAGGUGGACAUCUUUGGGAAGUGGGGCAAGGGGGGGAUAGGGAGGGGGGUAACACUUUGGGAACAGGUGGUCCCAGGUCGUUUC	0.299
AAGUCCUGUGCUACACAUCGUAUGUACCGAAUCGGGAAAAAAAGGGUGGGUUUGGGAAAGUAUUAUGUUACGCCGUUCGGAUCUGCACUU	-1.65

Sample 4
Target: RING finger protein unkempt homolog, zinc fingers 1-6, GST-SBP tag (UNK, Homo sapiens, UniProt Q9C0B0, residues 30-357)
Sequence of UniProt Q9C0B0 (30-357, looked up): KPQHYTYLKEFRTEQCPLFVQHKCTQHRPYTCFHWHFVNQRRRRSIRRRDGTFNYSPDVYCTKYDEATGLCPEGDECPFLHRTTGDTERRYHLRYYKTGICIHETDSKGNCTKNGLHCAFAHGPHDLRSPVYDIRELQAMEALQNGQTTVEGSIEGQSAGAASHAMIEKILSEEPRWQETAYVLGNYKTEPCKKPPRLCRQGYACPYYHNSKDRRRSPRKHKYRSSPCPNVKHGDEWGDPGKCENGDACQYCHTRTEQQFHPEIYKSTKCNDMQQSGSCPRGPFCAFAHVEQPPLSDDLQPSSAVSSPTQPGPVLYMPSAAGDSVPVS
Technique: RNA Bind-n-Seq
Molecule type: RNA
Sample: in vitro
Concentration: not given
Setting: RNA with constant flanks, human-mouse chimeric sites, ends assumed
Relative to: input RNA pool
Direction: higher = stronger binding
All sequences stand within: GGGAGUUCUACAGUCCGACGAUC … CAACAGAGGAUUGAGCAUCA
Sequence	bound/input enrichment [ratio]
AAAGUGGACUAUGGUGAAUACAUGGAUAAAAACAAUGUGAGGCGGCAAGCAACAACAAUCAUAGCUGAUAACAUUAUAUUUCUGAGUGACCAGACAAAAGAAAAGGCAUAGAACGGAUGA	2.27
ACACAAUAUGAGACCAACAGCUUGGACUUCAAAGUUGGGGCAGAUGGGACAGUCUUCGCCACCCGGGAGUUGAAGAUCCCCUCCGAGCAGGUGGCGUUCACGGUGACUGCAUGGGACAGC	0.237
ACUCUUGACUCUUUCCAUCCUCUUCCUUUUCCUCUUGAUAUUCAAGGCCAUGAAUCCCAAAAUAACAGUCUUAGUGGGAGGCUAGCAAACAGAGGUGGAAUAAAUCCACCCCAGUGUCUC	0.487
UCCCAAAUCCAGCAGCUAGAAGGAGCCUUGAGACAAACACUCCACACACAGGGAAGGCAAUAGCUUUGUACAUUGGUUUACAUUUUUUCCCCCUGUGGAUUUUUCUAUCCUAGUGCUUGC	0.389
UAAGUCCAUUUGUAAGCCUUCGCUCAUAAAGUUUUAAAUUCUGGACCAAUAGUGUUUAUCUUUAGAAUAUUGUAUCCAAUACUUUGCCUAGUAUGUAACUCACUCUUACUGAUAAUAAAA	17.5
GCCACCAGAUCCCAGAAACAUGACCCUUGCUGCCUACAAGGAGAAGAUGAAGGAGCUCCCACUAGUGUCCUUGUUCUGCUCCUGCUUCCUGGCCGAUCCCCUGAAUAAGUCGUCCUACAA	0.457
CUGAGGAUACCACUGAAGAGACCUUAAAAGAAUCAUUUGAGGGCUCUGUUCGUGCAAGAAUAGUCACUGAUCGGGAAACUGGUUCUUCCAAAGGGUUUUGGUUUUGUGACUUUAAUAGUG	0.317
UGUAACUCUUAUCUGUAAGGUUCCCCCCCCUACUGUCCAAAAAAUAUGCAUGUAUAGUAAUUAGGACUUCAUUCCUCCAUGUUUUCUUCCCUUAUCUUACUGUCAUUGUCCUUAAACCUU	1.12

Some of these lines once more (sample 2):
Sequence	fitted relative affinity [z-score]
GACGATTCCGGTTTCGGGACGTGCTAG	4.81
TAAGGTTTCGGGTTTCGGTTAGTGCTA	10.4
TTAGGTATCGGTCTCTGTTAGTGCTAG	1.08
GACGGTTTCCTTCTCCTTACGTGCTAG	3.19
TCATGTACGTCGTTTCCCACTGTGCTA	1.93
GACGAACTGAGACTGGAGAAGTGCTAG	-0.229
TTACATTTATATCTTTGCTTGTGCTAG	1.06
TTAGGTATCGACTATGGGTTAGTGCTA	0.0648
